Results collected from several papers.
A part holds a random share of what one study measured. “And” joins repeats or separate records; there may be more than shown.

Set 1
Target: Eukaryotic initiation factor 4A-I (EIF4A1, Homo sapiens, UniProt P60842)
UniProt P60842, sequence (whole entry, looked up): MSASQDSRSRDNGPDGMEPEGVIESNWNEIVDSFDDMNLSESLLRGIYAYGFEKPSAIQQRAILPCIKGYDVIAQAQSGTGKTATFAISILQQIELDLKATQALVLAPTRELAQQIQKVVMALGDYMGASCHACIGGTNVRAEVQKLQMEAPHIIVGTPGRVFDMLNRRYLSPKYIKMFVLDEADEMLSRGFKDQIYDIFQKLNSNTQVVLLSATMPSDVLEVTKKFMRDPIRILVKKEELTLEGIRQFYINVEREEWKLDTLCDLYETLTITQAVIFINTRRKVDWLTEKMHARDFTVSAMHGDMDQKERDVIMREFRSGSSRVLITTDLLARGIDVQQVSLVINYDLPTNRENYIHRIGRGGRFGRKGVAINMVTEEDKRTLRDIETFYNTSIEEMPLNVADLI
Effect on: RNA clamping
Method: fluorescence polarization
Concentration: concentration not given
Together with: FAM-labelled poly r(AG)8 RNA
Reading: higher = more clamping
Endpoint: fluorescence polarization change
COC(=O)[C@H]1[C@@H](O)[C@@]2(O)c3c(OC)cc(O)cc3O[C@@]2(c2ccc(OC)cc2)[C@@H]1c1ccccc1: 53 mP
CONC(=O)[C@H]1[C@@H](O)[C@@]2(O)c3c(OC)cc(OC)cc3O[C@@]2(c2ccc(Br)cc2)[C@@H]1c1ccccc1: 70.8 mP and 74.7 mP
COCC1=N[C@@]2(O)[C@H](C(=O)N(C)OC)[C@@H](c3ccccc3)[C@]3(c4ccc(OC)cc4)Oc4cc(OC)cc(OC)c4[C@]23N1: 65.1 mP
COC(=O)[C@H]1[C@@H](O)[C@@]2(O)c3c(OC)cc(OC)cc3O[C@@]2(c2ccc(OC)cc2)[C@@H]1c1ccccc1: 62.2 mP and 32 mP
COc1ccc([C@@]23Oc4cc(OC)cc(OC)c4[C@]2(O)c2nc(-c4ccc(N(C)C)cc4)[nH]c(=O)c2[C@H]3c2ccccc2)cc1: 5.1 mP
COc1ccc([C@@]23Oc4cc(OC)cc(OC)c4[C@]2(O)c2nc4n(c(=O)c2[C@H]3c2ccccc2)CCC4)cc1: 56.6 mP and 78 mP
COc1ccc(-c2nc3c(c(=O)[nH]2)[C@@H](c2ccccc2)[C@]2(c4ccc(OC)cc4)Oc4cc(OC)cc(OC)c4[C@]32O)cc1: 14.6 mP and 18.6 mP
COc1ccc([C@@]23Oc4cc(OC)cc(OC)c4[C@]2(O)c2nc4n(c(=O)c2[C@H]3c2ccccc2)CCCC4)cc1: 51.1 mP
COC(=O)[C@H]1[C@@H](c2ccccc2)[C@]2(c3ccc(OC)cc3)Oc3cc(OC)cc(OC)c3[C@@]1(O)C2=O: 6.4 mP
COC(=O)[C@@H]1[C@@H](c2ccccc2)[C@]2(c3ccccc3)Oc3ccccc3[C@@]1(O)[C@H]2O: 7.4 mP
COCCN[C@]12c3c(OC)cc(OC)cc3O[C@@]1(c1ccc(OC)cc1)[C@H](c1ccccc1)C[C@@H]2O: 6 mP
COc1ccc([C@@]23Oc4cc(OC)cc(OC)c4[C@]2(O)c2nc(-c4ccccc4)[nH]c(=O)c2[C@@H]3c2ccccc2)cc1: 10.3 mP
COc1ccc([C@@]23Oc4cc(OC)cc(OC)c4[C@]2(O)c2nc[nH]c(=O)c2[C@H]3c2ccccc2)cc1: 45.3 mP

Set 2
SMILES: CCCCC[C@@H](O)CC(=O)N[C@H]1COC(=O)[C@H](CO)NC(=O)CNC(=O)[C@H]([C@@H](C)O)NC(=O)[C@H](Cc2ccccc2)NC(=O)[C@@H](Cc2c[nH]c3ccccc23)NC(=O)[C@@H]([C@H](C)O)NC(=O)[C@H](CC(N)=O)NC(=O)[C@@H]([C@H](C)O)NC(=O)[C@H](CC(C)C)NC(=O)[C@@H](Cc2c[nH]c3ccccc23)N(C)C(=O)CNC(=O)[C@H](CO)NC(=O)[C@@H](CO)NC1=O
Organism: Staphylococcus aureus
Strain: USA300
Concentration: 2 x MIC
Endpoint: viable cells
120 min: 600 CFU/mL and 700 CFU/mL and 500 CFU/mL
0 min: 3.9e+08 CFU/mL and 4e+08 CFU/mL and 4.6e+08 CFU/mL
60 min: 1000 CFU/mL and 700 CFU/mL and 600 CFU/mL
30 min: 2000 CFU/mL and 2400 CFU/mL and 2900 CFU/mL

Set 3
Target: Calcium/calmodulin-dependent protein kinase type II subunit alpha (CAMK2A, Homo sapiens, UniProt Q9UQM7)
UniProt Q9UQM7, sequence (whole entry, looked up): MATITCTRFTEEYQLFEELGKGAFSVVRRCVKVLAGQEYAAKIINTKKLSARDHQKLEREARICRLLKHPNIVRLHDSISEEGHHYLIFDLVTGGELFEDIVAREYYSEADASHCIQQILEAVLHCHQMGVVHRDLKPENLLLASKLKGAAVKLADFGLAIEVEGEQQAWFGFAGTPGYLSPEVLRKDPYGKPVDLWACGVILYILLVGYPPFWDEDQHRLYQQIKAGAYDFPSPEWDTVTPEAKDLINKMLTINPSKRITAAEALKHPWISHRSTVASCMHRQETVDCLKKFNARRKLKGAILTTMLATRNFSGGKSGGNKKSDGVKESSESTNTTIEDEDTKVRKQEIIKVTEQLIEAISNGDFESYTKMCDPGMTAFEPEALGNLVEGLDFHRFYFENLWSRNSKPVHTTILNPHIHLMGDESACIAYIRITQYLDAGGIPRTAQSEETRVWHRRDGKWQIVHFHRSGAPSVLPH
Effect on: enzyme activity
Mode: inhibitor
Concentration: 10 µM
Endpoint: inhibition
COc1ccc2c3c1O[C@H]1C[C@@H](O)C=C[C@@]31CC[N@@+](C)([O-])C2: 4%
CC[C@H]1CN2CC[C@H]1C[C@H]2[C@H](O)c1ccnc2ccc(OC)cc12: -50%
C[C@H](CCC(=O)O)C[C@H](C)C[C@H](C)C(=O)/C=C(\O)[C@H](C)C[C@H](C)C/C=C/[C@@H](C)[C@@H](O)[C@@H](C)[C@@H](O)C[C@@H]1CC[C@@](C)([C@H]2CC[C@@](C)([C@@H](C)O)O2)O1: -51%
C=C1[C@@H](C)[C@H]2[C@H](Cc3ccccc3)NC(=O)[C@]23OC(=O)/C=C/[C@H](O)CCC[C@@H](C)C/C=C/[C@H]3[C@@H]1O: -29%
CN1[C@@H]2CC[C@H]1CC(O)C2 (stereo partly shown): 24%
CC(C)=CCC[C@@](C)(O)[C@H]1CC[C@]2(C)[C@@H]1[C@H](O)C[C@@H]1[C@@]3(C)CC[C@H](O[C@@H]4O[C@H](CO)[C@@H](O)[C@H](O)[C@H]4O)C(C)(C)[C@@H]3CC[C@]12C: -3%
CCC1(O)C(=O)OCc2c1cc1n(c2=O)Cc2cc3cc(O)ccc3nc2-1 (racemic): -13%
COc1cc(OC)c2c(=O)cc(-c3ccc(OC)c(OC)c3)oc2c1: 3%
NC(=O)NCCCC[C@H](N)C(=O)O: -15%

Mixed results
Target: His6 tag
Method: AlphaScreen counter screen
Concentration: concentration not given
O=C1NC(=O)c2c1c1c3ccccc3n3c1c1c2c2ccccc2n1[C@@H]1CCC3O1  inhibition: -25.1%
CCCCN1C(=O)NC(=O)C(=C(C)Nc2cccc(C(=O)O)c2)C1=O  inhibition: -5.9%
